Assay results gathered from unrelated publications.
Each numbered part is a random draw from the data of one study; scales do not carry over between parts. “And” joins repeats or separate records; there may be more than shown.
UniProt Q6P2M8, sequence (whole entry, looked up): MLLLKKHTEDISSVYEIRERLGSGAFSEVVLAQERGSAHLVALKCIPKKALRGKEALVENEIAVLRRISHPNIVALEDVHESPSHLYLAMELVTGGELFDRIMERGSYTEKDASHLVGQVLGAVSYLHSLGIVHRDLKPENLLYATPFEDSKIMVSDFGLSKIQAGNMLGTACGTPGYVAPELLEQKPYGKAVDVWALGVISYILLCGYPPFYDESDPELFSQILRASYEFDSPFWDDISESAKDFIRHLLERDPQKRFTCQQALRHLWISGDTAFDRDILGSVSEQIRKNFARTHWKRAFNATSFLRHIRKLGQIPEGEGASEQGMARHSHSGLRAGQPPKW

Block 1
SMILES: C[C@@H](c1cccc(C#N)c1)n1cc(Cl)cc(C(N)=O)c1=N
Technique: competition with immobilised ligand
Concentration: 1 µM
The remaining binding was 100% (Ribosomal protein S6 kinase alpha-4, N-terminal kinase domain (RPS6KA4, Homo sapiens, UniProt O75676); cell-free assay).
MAP4K4 (Homo sapiens, UniProt O95819); cell-free assay — remaining binding: 89%.
The remaining binding was 100% (STK4 (Homo sapiens, UniProt Q13043); cell-free assay).
The remaining binding was 100% (Tyrosine-protein kinase JAK2, JH1 (JAK2, Homo sapiens, UniProt O60674); cell-free assay).
For FYN (Homo sapiens, UniProt P06241); cell-free assay: remaining binding read 65%.
Cyclin-dependent kinase 4, with cyclin D1 (CDK4, Homo sapiens, UniProt P11802); cell-free assay — remaining binding: 96%.
For LRRK2 (Homo sapiens, UniProt Q5S007); cell-free assay: remaining binding read 100%.
For CDK11A (Homo sapiens, UniProt Q9UQ88); binding: remaining binding read 90%.
The remaining binding was 92% (Receptor-type tyrosine-protein kinase FLT3, autoinhibited (FLT3, Homo sapiens, UniProt P36888); cell-free assay).
The remaining binding was 88% (PNCK (Homo sapiens, UniProt Q6P2M8); cell-free assay).
For RAF1 (Homo sapiens, UniProt P04049); cell-free assay: remaining binding read 100%.
It gave 85% for remaining binding (FLT3 (Homo sapiens, UniProt P36888, F691L/ITD); cell-free assay).
The remaining binding was 75% (DYRK1A (Homo sapiens, UniProt Q13627); cell-free assay).

Block 2
Target: Calcium/calmodulin-dependent protein kinase type II subunit alpha (CAMK2A, Homo sapiens, UniProt Q9UQM7)
UniProt Q9UQM7, sequence (whole entry, looked up): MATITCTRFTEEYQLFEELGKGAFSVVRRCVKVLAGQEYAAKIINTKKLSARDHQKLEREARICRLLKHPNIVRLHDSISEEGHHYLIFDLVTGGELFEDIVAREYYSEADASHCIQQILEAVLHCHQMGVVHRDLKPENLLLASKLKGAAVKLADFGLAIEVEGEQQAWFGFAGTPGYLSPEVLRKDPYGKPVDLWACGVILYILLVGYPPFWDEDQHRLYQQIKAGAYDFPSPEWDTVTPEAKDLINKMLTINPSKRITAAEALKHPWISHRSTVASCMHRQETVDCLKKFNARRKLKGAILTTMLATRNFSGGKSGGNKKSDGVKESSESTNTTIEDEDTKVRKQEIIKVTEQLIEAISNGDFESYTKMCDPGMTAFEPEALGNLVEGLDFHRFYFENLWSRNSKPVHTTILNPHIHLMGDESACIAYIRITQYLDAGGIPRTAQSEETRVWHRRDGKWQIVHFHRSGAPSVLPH
Read-out: enzyme activity
Mode: inhibitor
Concentration: 10 µM
`CN(C/C=C/c1ccccc1)Cc1cccc2ccccc12` gave an inhibition of 1%.
`CC(=O)c1c(C)cc2cccc(O)c2c1O` gave an inhibition of 12%.
For `CC=CC1=C(C(=O)O)N2C(=O)[C@@H](NC(=O)[C@H](N)c3ccc(O)cc3)[C@H]2SC1` (mixture of isomers), the inhibition was -6%.
`NC(CCCC(=O)O)C(=O)O` (stereo not drawn) has an inhibition of -14%.
For `C[C@@H]1O[C@@H](O[C@H]2C(=O)c3c(O)cc(O)cc3O[C@H]2c2ccc(O)c(O)c2)[C@H](O)[C@H](O)[C@H]1O`, the inhibition was -7%.
`COc1cc(/C=C/C(=O)N2CCC=CC2=O)cc(OC)c1OC` gave an inhibition of 3%.
`C[C@]12CCC(=O)C=C1CC[C@@H]1[C@@H]2[C@@H](O)C[C@@]2(C)[C@H]1CC[C@]2(O)C(=O)CO` has an inhibition of 38%.
`CSCC[C@H](NC(=O)[C@H](Cc1ccccc1)NC(=O)[C@H](Cc1cnc[nH]1)NC(=O)CNC(=O)[C@@H](NC(=O)[C@H](C)NC(=O)[C@H](Cc1c[nH]c2ccccc12)NC(=O)[C@H](CCC(N)=O)NC(=O)[C@@H]1CCC(=O)N1)C(C)C)C(N)=O` has an inhibition of -12%.
`S=P(N1CC1)(N1CC1)N1CC1` gave an inhibition of 3%.
With `C#C[C@]1(O)CC[C@H]2[C@@H]3CCC4=CC(=O)CC[C@@H]4[C@H]3CC[C@@]21C` the inhibition was -4%.
The inhibition of `NC1CCCNC1=O` (stereo not drawn) is reported as 25%.
With `CCC[C@@H]1C[C@@H](C(=O)N[C@@H]([C@H]2O[C@H](SC)[C@H](O)[C@@H](O)[C@H]2O)[C@H](C)Cl)N(C)C1` the inhibition was 3%.
The inhibition of `CCCCCCCCCCCCCCCCCCCCCCCCCCCCC` is reported as 14%.
The inhibition of `OC[C@H]1O[C@@](CO)(OC[C@@]2(OC[C@@]3(O[C@H]4O[C@H](CO)[C@@H](O)[C@H](O)[C@H]4O)O[C@H](CO)[C@@H](O)[C@@H]3O)O[C@H](CO)[C@@H](O)[C@@H]2O)[C@@H](O)[C@@H]1O` is reported as -20%.

Block 3
Target: DNA polymerase theta, ATPase domain (POLQ, Homo sapiens, UniProt O75417)
UniProt O75417, sequence (whole entry, unmodified, looked up): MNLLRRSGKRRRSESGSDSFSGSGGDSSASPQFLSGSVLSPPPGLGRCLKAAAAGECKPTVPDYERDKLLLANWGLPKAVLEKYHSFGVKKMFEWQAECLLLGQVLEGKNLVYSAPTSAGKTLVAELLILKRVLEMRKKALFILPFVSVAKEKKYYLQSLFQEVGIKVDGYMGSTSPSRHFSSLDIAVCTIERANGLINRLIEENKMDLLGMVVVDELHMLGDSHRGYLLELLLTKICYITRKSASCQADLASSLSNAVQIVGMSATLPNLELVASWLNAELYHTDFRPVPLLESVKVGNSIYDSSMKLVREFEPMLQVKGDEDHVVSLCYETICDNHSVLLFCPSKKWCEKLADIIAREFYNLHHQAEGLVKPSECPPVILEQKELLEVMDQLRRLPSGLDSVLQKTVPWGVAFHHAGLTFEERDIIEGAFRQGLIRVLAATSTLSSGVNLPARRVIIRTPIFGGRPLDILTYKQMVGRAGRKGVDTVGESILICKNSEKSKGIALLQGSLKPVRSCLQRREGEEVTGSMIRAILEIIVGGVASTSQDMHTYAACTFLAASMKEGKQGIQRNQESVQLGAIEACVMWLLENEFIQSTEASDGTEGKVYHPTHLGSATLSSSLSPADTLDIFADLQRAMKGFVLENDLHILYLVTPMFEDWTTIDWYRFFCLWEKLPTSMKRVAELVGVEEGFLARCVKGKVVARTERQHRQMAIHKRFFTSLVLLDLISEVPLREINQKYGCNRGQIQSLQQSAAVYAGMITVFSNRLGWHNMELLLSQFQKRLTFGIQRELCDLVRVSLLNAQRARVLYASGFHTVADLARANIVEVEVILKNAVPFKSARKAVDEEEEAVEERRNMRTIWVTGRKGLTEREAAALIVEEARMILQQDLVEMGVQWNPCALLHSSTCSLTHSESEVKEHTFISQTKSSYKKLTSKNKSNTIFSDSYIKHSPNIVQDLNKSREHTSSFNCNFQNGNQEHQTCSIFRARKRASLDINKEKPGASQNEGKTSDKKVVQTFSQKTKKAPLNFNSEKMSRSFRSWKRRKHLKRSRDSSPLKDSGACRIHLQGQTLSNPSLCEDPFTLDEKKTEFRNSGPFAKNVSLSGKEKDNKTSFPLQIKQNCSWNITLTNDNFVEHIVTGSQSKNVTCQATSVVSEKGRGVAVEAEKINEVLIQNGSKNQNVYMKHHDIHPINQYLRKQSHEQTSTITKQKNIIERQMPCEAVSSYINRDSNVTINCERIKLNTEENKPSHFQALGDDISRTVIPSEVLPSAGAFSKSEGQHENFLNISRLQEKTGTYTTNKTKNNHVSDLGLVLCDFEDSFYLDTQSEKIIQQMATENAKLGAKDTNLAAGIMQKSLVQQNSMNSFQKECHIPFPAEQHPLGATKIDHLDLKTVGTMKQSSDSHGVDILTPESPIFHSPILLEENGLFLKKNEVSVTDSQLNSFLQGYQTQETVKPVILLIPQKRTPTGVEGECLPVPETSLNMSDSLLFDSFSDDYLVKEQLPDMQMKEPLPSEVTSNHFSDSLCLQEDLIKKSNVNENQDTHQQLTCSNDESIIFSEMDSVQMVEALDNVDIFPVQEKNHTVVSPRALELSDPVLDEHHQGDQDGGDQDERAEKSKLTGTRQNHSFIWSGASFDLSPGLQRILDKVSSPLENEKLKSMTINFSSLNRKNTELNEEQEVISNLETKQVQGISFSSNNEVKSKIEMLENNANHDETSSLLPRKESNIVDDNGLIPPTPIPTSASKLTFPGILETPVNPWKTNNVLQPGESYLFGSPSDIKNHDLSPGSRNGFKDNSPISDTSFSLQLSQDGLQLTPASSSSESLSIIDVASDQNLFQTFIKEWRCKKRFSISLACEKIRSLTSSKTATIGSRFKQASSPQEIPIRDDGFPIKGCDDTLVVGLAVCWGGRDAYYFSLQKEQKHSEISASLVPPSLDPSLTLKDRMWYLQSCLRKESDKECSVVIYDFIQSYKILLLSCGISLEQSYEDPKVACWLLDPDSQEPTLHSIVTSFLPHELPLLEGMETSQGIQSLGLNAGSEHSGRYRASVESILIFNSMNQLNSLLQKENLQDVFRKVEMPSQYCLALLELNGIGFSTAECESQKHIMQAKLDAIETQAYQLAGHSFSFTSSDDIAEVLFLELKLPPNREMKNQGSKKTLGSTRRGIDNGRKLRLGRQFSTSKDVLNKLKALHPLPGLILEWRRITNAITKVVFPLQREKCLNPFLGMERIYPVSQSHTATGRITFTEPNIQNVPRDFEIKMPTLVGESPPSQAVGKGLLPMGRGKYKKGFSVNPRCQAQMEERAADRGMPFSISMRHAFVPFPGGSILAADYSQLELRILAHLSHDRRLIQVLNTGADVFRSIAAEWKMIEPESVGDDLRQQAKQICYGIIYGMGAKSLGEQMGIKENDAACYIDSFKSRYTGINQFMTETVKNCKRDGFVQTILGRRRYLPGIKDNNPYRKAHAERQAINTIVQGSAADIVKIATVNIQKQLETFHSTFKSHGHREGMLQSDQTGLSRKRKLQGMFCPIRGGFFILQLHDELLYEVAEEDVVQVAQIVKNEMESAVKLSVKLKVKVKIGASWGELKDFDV
Read-out: enzyme activity
Mode: inhibitor
Concentration: 77 µM
Baseline: untreated
For `CO[C@H]1C[C@@H]2CC[C@@H](C)[C@@](O)(O2)C(=O)C(=O)N2CCCC[C@H]2C(=O)O[C@H]([C@H](C)C[C@@H]2CC[C@@H](OCCO)[C@H](OC)C2)CC(=O)[C@H](C)/C=C(\C)[C@@H](O)[C@@H](OC)C(=O)[C@H](C)C[C@H](C)/C=C/C=C/C=C/1C`, the remaining activity was 95.6%.
`C=C[C@]1(C)C[C@@H](OC(=O)CS[C@@H]2C[C@H]3CC[C@@H](C2)N3C)[C@]2(C)[C@H](C)CC[C@]3(CCC(=O)[C@H]32)[C@@H](C)[C@@H]1O` has a remaining activity of 98.5%.
The remaining activity of `CN(c1ncccc1CNc1nc(Nc2ccc3c(c2)CC(=O)N3)ncc1C(F)(F)F)S(C)(=O)=O` is reported as 102% and 98.4% and 106% and 103% and 94.4%.
For `Cc1ccc(C(=O)N(CCCN)[C@@H](c2oc3cc(Cl)ccc3c(=O)c2Cc2ccccc2)C(C)C)cc1`, the remaining activity was 101%.
For `O=C1c2ccccc2C(=O)c2c(NCCc3ccc(O)cc3)ccc(NCCc3ccc(O)cc3)c21`, the remaining activity was 99.8%.
`COCCOc1cc2ncnc(Cl)c2cc1OCCOC` has a remaining activity of 105%.
For `O=C(O)C1=CCCN(CCON=C(c2ccccc2)c2ccccc2)C1`, the remaining activity was 93.9%.
`Cc1ccc(Cl)cc1N(CC(=O)Nc1c(F)cccc1F)S(C)(=O)=O` gave a remaining activity of 99.9%.
The remaining activity of `CCOC(=O)[C@@H](N)Cc1ccc(-c2cc(O[C@H](c3ccc(Cl)cc3-n3ccc(C)n3)C(F)(F)F)nc(N)n2)cc1` is reported as 101%.
`CCC(=O)[C@@]1(C)[C@H](C)C[C@H]2[C@@H]3CCC4=CC(=O)C=C[C@]4(C)[C@H]3[C@@H](O)C[C@@]21C` gave a remaining activity of 104%.
The remaining activity of `O=C(CCCCCN1C(=O)c2cccc3cccc(c23)C1=O)NO` is reported as 102%.
For `COc1cc(-c2cc(-c3cccc(O)c3)cnc2N)cc(OC)c1OC`, the remaining activity was 97%.

Block 4
Target: LIM domain kinase 1 (LIMK1, Homo sapiens, UniProt P53667)
UniProt P53667, sequence (whole entry, looked up): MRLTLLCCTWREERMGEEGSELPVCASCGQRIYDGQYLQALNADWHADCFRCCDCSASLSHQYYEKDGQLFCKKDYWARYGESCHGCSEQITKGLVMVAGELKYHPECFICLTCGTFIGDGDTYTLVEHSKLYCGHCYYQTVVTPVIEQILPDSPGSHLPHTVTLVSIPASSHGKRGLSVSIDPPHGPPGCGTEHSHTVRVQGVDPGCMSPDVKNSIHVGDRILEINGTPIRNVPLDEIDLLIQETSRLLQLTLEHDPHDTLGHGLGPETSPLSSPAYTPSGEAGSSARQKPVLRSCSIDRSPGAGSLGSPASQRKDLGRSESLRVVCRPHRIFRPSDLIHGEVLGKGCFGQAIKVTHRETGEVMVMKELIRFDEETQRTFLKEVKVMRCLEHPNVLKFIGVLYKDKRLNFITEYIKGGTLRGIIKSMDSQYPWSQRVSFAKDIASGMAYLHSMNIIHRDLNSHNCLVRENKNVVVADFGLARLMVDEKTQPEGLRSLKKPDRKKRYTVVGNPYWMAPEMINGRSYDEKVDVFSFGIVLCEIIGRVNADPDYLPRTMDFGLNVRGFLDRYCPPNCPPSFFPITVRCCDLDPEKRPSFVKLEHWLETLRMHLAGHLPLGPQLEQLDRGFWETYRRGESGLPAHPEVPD
Read-out: enzyme activity
Mode: inhibitor
Concentration: 0.5 µM
Baseline: control
With `COc1ccc2c(c1)c(C1=C(c3c[nH]c4ccccc34)C(=O)NC1=O)cn2CCCN(C)C` the remaining activity was 81.8%.
With `CN1CCN(c2ccc3nc(-c4c(N)c5c(F)cccc5[nH]c4=O)[nH]c3c2)CC1` the remaining activity was 88.3%.
`O=C1NC(=O)c2c1c1c3ccccc3[nH]c1c1[nH]c3cc(Br)ccc3c21` gave a remaining activity of 83.5%.
With `COc1ccc(COc2ccc(Cc3cnc(N)nc3N)cc2OC)cc1` the remaining activity was 94.5%.
`c1ccc(-c2n[nH]c3c2oc2ccccc23)cc1` has a remaining activity of 71.2%.
With `O=c1cc(N2CCOCC2)oc2c(-c3ccccc3)cccc12` the remaining activity was 98.6%.
The remaining activity of `O=C1Nc2ccccc2/C1=C\c1c(Cl)[nH]c2ccccc12` is reported as 109%.
With `O=C1NC(=O)c2c1c1c3ccccc3[nH]c1n1cncc21` the remaining activity was 74.7%.
With `CN(C)S(=O)(=O)c1ccc2c(c1)/C(=C/c1cc3c([nH]1)CCCC3)C(=O)N2` the remaining activity was 60.7%.
`Cc1ccc(S(=O)(=O)/C=C/C#N)cc1` has a remaining activity of 97.1%.
For `Oc1cccc(-c2nc(N3CCOCC3)c3oc4ncccc4c3n2)c1`, the remaining activity was 93.7%.
For `Cc1cc(Nc2cc(N3CCN(C)CC3)nc(Sc3ccc(NC(=O)C4CC4)cc3)n2)[nH]n1`, the remaining activity was 33.1%.
`COc1cccc(-c2cc(=O)c3ccccc3o2)c1N` gave a remaining activity of 96.1%.
`CCCNC(=O)Nc1ccc(Oc2ncnc3cc(OC)c(OC)cc23)cc1Cl` has a remaining activity of 81.6%.
The remaining activity of `c1ccc2c(-c3ccncc3)c[nH]c2c1` is reported as 92%.
For `O=C1Cc2c([nH]c3ccc(Br)cc23)-c2ccccc2N1`, the remaining activity was 99.2%.
With `O=Nc1c(-c2c(O)[nH]c3cc(Br)ccc23)[nH]c2ccccc12` the remaining activity was 51.7%.
With `O=C1Nc2ccc(Br)cc2/C1=C/c1cc2c([nH]1)CCCC2` the remaining activity was 83%.
With `CCCCc1c(-c2ccc(OC)cc2)[nH]c2nccnc12` the remaining activity was 65.3%.
`O=C(c1cc2cc(O)ccc2[nH]1)c1cc2cc(O)ccc2[nH]1` has a remaining activity of 87.9%.
The remaining activity of `N#Cc1cnc2cnc(NCc3cccnc3)cc2c1Nc1ccc(F)c(Cl)c1` is reported as 101%.

Some of these lines once more (block 3):
For `O=C(O)C1=CCCN(CCON=C(c2ccccc2)c2ccccc2)C1`, the remaining activity was 93.9%.
The remaining activity of `CCOC(=O)[C@@H](N)Cc1ccc(-c2cc(O[C@H](c3ccc(Cl)cc3-n3ccc(C)n3)C(F)(F)F)nc(N)n2)cc1` is reported as 101%.
`COCCOc1cc2ncnc(Cl)c2cc1OCCOC` has a remaining activity of 105%.
The remaining activity of `O=C(CCCCCN1C(=O)c2cccc3cccc(c23)C1=O)NO` is reported as 102%.
